Measurements of several laboratories.
Each line is one published result; not all experiments were run side by side. Values joined by “and” are separate records of one study, mostly repeats; a detail may differ. ± gives the spread as reported.

SMILES | test | system | setting | scale | endpoint | value
CNC(=O)c1ccc(-c2cnc3ncc(Cc4ccc5ncccc5c4)n3n2)cc1F | measured: Headache | cancer patients | oral, dose not given, dose escalation, grade 3-4 | – | patients with adverse event | 0%
CN(Cc1cnc2nc(N)nc(N)c2n1)c1ccc(C(=O)N[C@@H](CCC(=O)O)C(=O)O)cc1 | lipid PAMPA | – | 10 µM, 16 h, pH 7.4, 25 °C | – | -log Pe | > 8.99
CCc1c(-c2ccccc2)c(-c2ccccc2)nn1-c1ccccc1-c1cccc(OCC(=O)O)c1 | – | Sprague-Dawley rat, -Brain homogenate | oral, 10 mg/kg, 4 h | – | concentration | 19.4 ng/mL and 9.77 ng/mL
C=CC(=O)NC1CCN(c2ncc3ncnc(Nc4ccc(Oc5ccc6c(c5)ncn6C)c(C)c4)c3n2)CC1 | – | healthy male humans | oral, 240 mg | – | participants with back pain TEAE | 6.3%
O=Cc1c(O)cc(C(F)(F)F)cc1C(F)(F)F | chemical stability, HPLC-MS | borate buffered saline | pH 10.2, no N-acetyl-lysine | – | degradation rate constant | 0 h⁻¹
CC(C)(C(=O)N1CCOc2c(C#N)cncc2C1)C(F)F | measured: Lymphadenopathy | human | oral, 20 mg once daily, 14 days, multiple ascending dose | – | subjects with adverse event | 0%
CC(C)C[C@H](NC(=O)[C@H](N)C(C)C)C(=O)N[C@@H](CCCNC(=N)N)C(=O)N[C@@H](Cc1c[nH]c2ccccc12)C(=O)N[C@@H](CO)C(=O)N[C@@H](CCCNC(=N)N)C(=O)N[C@@H](CCCCN)C(=O)N[C@@H](CC(C)C)C(=O)N1CCC[C@H]1C(=O)N[C@@H](CS)C(=O)N[C@H](C(=O)N[C@@H](CO)C(N)=O)C(C)C | 12G5 competition, SUP-T1 cells | human plasma | 20 µM, 2 h, 37 °C | – | remaining activity | 75 ± 8%
COc1cc2c(Nc3ccc(Cl)c(Cl)c3F)ncnc2cc1OC[C@@H]1C[C@@H]2CN(C)C[C@@H]2C1 | – | FVB Mdr1a/b(-/-) Bcrp1(-/-) mouse | oral, 70 mg/kg, 2 h | – | unbound plasma concentration | 31.5 ng/mL
Cc1ccc(Sc2ccccc2N2CCNCC2)c(C)c1 | measured: Headache | healthy adult men | oral, 20 mg daily, 12 days | – | participants with TEAE | 0%
CCCCC1=NC2(CCCC2)C(=O)N1Cc1ccc(-c2ccccc2S(=O)(=O)Nc2noc(C)c2C)c(COCC)c1 | – | healthy adult volunteers, plasma | oral, 400 mg, 14 days repeated dosing, fasted, crushed tablet | – | Cmax | 6470 ng/mL
CC(C)(c1ccc(O)cc1)c1ccc(O)cc1 | – | cow whole milk | 20 nM | relative to: milk fat over skim milk | milk fat partition ratio | 13.7
N#Cc1ccc2c(c1)[C@H]1CCCN(C(=O)c3ccc4[nH]cnc4c3)[C@H]1C2 | – | human, female | 40 mg, day 15 | – | androstenedione level | 8.6 nmol/L
Oc1cccc(O)c1O | LC-MS/MS | male Ross 308 broilers, serum | oral, dose not given | – | serum concentration | not detected
Oc1ccc(/C=C/c2cc(O)cc(O)c2)cc1 | – | rat, azoxymethane-injected, blood at sacrifice | 100 mg/kg | – | inorganic phosphorus | 5.7 mg/dL and 4.5 mg/dL and 6.1 mg/dL
CC[C@@H]([C@H](C)O)n1ncn(-c2ccc(N3CCN(c4ccc(OC[C@@H]5CO[C@@](Cn6cncn6)(c6ccc(F)cc6F)C5)cc4)CC3)cc2)c1=O | – | rat plasma | 1600 ng/mL, 21 days, -80 °C | relative to: nominal concentration | stability relative error | -9.6%
N#CCC(=O)Nc1ccc([C@H]2[C@@H](F)[C@@H](F)C[C@@H](F)[C@H]2F)cc1 | liver microsome stability | cynomolgus liver microsomes | 1 µM | – | hepatic clearance | 18 mL/min/kg
CC(=O)O[C@H]1C(=O)[C@@]2(C)[C@H]([C@H](OC(=O)c3ccccc3)[C@]3(O)C[C@H](OC(=O)[C@H](O)[C@@H](NC(=O)c4ccccc4)c4ccccc4)C(C)=C1C3(C)C)[C@]1(OC(C)=O)CO[C@@H]1C[C@@H]2O | measured: peripheral oedema | patients with advanced solid tumours | intravenous, dose not given, grade 3 and 4, possibly related to drug | – | adverse event incidence | 0%
CCOCc1nc(O)c(-c2nnc(Cc3ccc(Cl)cn3)o2)c(O)c1-c1c(OC)cccc1OC | – | rat, anaesthetised, cannulated, plasma | intravenous infusion, 1 µg/kg/min, 20 min after infusion stop, washout | – | plasma concentration | 0.231 µM
Cc1c(C(=O)O)ccc2c3n(nc12)[C@@H]1[C@H](C3)N(CC2CC2)[C@@]2(C(=O)Nc3cc(Cl)ccc32)[C@H]1c1cccc(Cl)c1F | phase Ia trial, measured: Pyrexia | cancer patients | oral, dose not given | – | adverse event incidence | 16%
Cl.N=C(CC(O)c1cc2c(F)cc(F)cc2c2cc(C(F)(F)F)ccc12)Nc1ccc(Br)cc1 (stereo not shown) | – | human plasma | 2.5 ng/mL, 24 h, 37 °C | – | degradation | 43.5%
Cc1cc(Nc2ccc(S(F)(F)(F)(F)F)cc2)n2nc(C(C)(F)F)nc2n1 | – | mouse (CD-1, female), whole blood | oral, 300 mg/kg daily, 8 h after dose 10 | – | blood concentration | 354 ± 65 µM
CNCc1ccc(-c2[nH]c3cc(F)cc4c3c2CCNC4=O)cc1 | measured: Diarrhea | human patients | oral, dose not given, all grades, all doses | – | patients with adverse event | 23.2%
Cc1cc(NC2CCN(C(=O)OC3CCN(C(=O)/C=C/CN(C)C)C3)CC2)n2ncc(C(C)C)c2n1 (stereo not shown) | – | patients with advanced solid tumours | dose not given, QD arm, any grade | – | patients with Flatulence | 9%

SMILES | test | system | setting | scale | endpoint | value
Nc1ccn([C@@H]2O[C@H](CO)[C@@H](O)C2(F)F)c(=O)n1 | HPLC-UV | human, plasma | 800 mg/m^2, mean, before paricalcitol | – | volume of distribution | 334 L/m²
COc1ccc2cc(CCC[18F])ccc2c1 | gel filtration | human plasma | 30 min, 37 °C | – | fu | 0.212
Cn1ncnc1[C@H]1c2n[nH]c(=O)c3cc(F)cc(c23)N[C@@H]1c1ccc(F)cc1 | – | human patients, plasma | oral, 400 µg/m2 twice daily day 1, day 5, dose level DL2, median, with: temozolomide 20 mg/m2 daily days 2-6 | – | AUC(0-8h) | 60.6 ng·h/mL
CN1C(=O)[C@@H](NC(=O)c2nnc(Cc3ccccc3)[nH]2)COc2cccnc21 | phase I single ascending dose | human, male and female | oral, 30 mg, fasted | – | TEAE leading to permanent discontinuation | 0%
O=C(O)CCC(=O)O.[2H]C([2H])([2H])Oc1cc(C)c2[nH]ccc2c1CN1CC[C@@H](C2CC2)C[C@H]1c1ccc(C(=O)O)cc1 | – | healthy Chinese subjects | 600 mg, single ascending dose | – | TEAE elevated blood triglycerides | 16.7%
O=C1NCCc2nc(OCc3cccc(F)c3)ccc21 | measured: loss of Grasping | Sprague-Dawley rat male | oral, 100 mg/kg, 1 h | direction not given | Irwin test score | 0
Cc1ccc2c(c1)sc(-c1ccc(N(C)C)cc1)[n+]2C | – | PBS | free dye | – | excitation maximum wavelength | 408 nm
CN1CCN(C(=O)c2ccc([C@H]3[C@@H](F)[C@@H](F)C[C@@H](F)[C@H]3F)cc2)CC1 | liver microsome stability | human liver microsomes | 1 µM, without NADPH | – | hepatic clearance | 3.9 mL/min/kg
O=C(c1ccc(F)cc1)C1CCN(CCn2c(=O)[nH]c3ccccc3c2=O)CC1 | – | dog liver microsomes | – | – | hepatic clearance | 18.2 mL/min/kg
CCc1ccc(OS(=O)(=O)[O-])cc1.[K+] | ultrafiltration | normal rat serum | 37 °C | – | serum protein binding | 100%
CCc1cc(C(=O)NC)c2nccc(N3CCc4c(cc(Cn5ccnc5)cc4-c4cn(C)nc4C(F)(F)F)C3=O)c2c1 | – | Sprague Dawley rats | oral, 100 mg/kg twice daily, 7 days | relative to: vehicle | blood Mono change | -18.6%
O=C(N[C@H](Cc1c[nH]c2ccccc12)C(=O)Nc1ccncc1)c1ccc(N2CCN(c3ccc(F)cc3F)CC2)cc1F | – | Swiss Webster mouse, female, fat | oral, 50 mg/kg, 2 h, 20% Kolliphor vehicle | – | concentration | 12.8 µM
OC[C@H]1O[C@@H](c2ccc(Cl)c(Cc3ccc(O[C@H]4CCOC4)cc3)c2)[C@H](O)[C@@H](O)[C@@H]1O | – | Japanese type 1 diabetes patients, blood | 10 mg, day 28 | relative to: baseline | change in LDL/HDL ratio | -0.08
O=C(NCCN1CCCC1=O)c1ccc(C2CCCCC2)cc1 | liver microsome stability | human liver microsomes | 1 µM, without NADPH | – | hepatic clearance | 3.9 mL/min/kg
C=CC(=O)Nc1cc(Nc2nccc(-c3cn(C4CC4)c4ccccc34)n2)c(OC)cc1N(C)CCN(C)C | bench-top stability | rat plasma | 40 ng/mL, 3 h, room temperature | relative to: nominal concentration | relative error | -8.3%
CN(C)CCC(=O)Nc1ccc(C2CCCCC2)cc1 | liver microsome stability | human liver microsomes | 1 µM, without NADPH | – | hepatic clearance | 5.4 mL/min/kg
Cc1cc(C)c(CNC(=O)c2cc(Cl)c3c(c2C)O[C@@](C)([C@H]2CC[C@H](N(C)C)CC2)O3)c(=O)[nH]1 | ultracentrifugation | glycoprotein, alpha-1-acid, 0.1% | 600 ng/mL, 160 min | – | fu | 0.077
O=C(O)CCCOc1ccc([18F])cc1-c1cc(-c2ccccc2C(F)(F)F)n(-c2ccccc2)n1 | gamma counting | male ddY mice, pancreas | intravenous, 2.1 MBq, 60 min | – | radioactivity uptake | 0.21 ± 0.02 SUV
O=C(NCc1cc[nH]n1)c1ccc([C@H]2[C@@H](F)[C@@H](F)C[C@@H](F)[C@H]2F)cc1 | liver microsome stability | rat liver microsomes | 1 µM | – | hepatic clearance | 14 mL/min/kg
CN1CCN(c2cccc3c2CCN(C(=O)/C=C/c2c(-n4cnnn4)ccc(Cl)c2F)[C@@H]3C(=O)Nc2ccc(C(=O)O)cc2)C(=O)C1 | – | healthy human subjects | intravenous infusion, 3 mg/h, 5 days | – | subjects with treatment-related adverse event | 0%
COc1ccnc(C(=O)N[C@H]2COC(=O)[C@H](Cc3ccccc3)[C@@H](O)[C@H](C)OC2=O)c1O | soil adsorption | tested soils | geometric mean | – | KFoc | 673 mL/g
CC(C)(C)NC(=O)C1CCN(Cc2cccc(/N=N/c3ccccc3F)c2)CC1 | – | DMSO | 25 µM, 25 °C | – | absorption maximum, trans isomer | 333 nm
NC1(C(=O)N[C@@H](CCO)c2ccc(Cl)cc2)CCN(c2nc[nH]c3nccc2-3)CC1 | – | metastatic CRPC patients | 480 mg b.i.d., any grade, treatment-related, with: enzalutamide 160 mg daily | – | incidence of Dyspepsia | 0%

Some of these lines once more:
SMILES | test | system | setting | scale | endpoint | value
Cc1ccc(Sc2ccccc2N2CCNCC2)c(C)c1 | measured: Headache | healthy adult men | oral, 20 mg daily, 12 days | – | participants with TEAE | 0%
CNC(=O)c1ccc(-c2cnc3ncc(Cc4ccc5ncccc5c4)n3n2)cc1F | measured: Headache | cancer patients | oral, dose not given, dose escalation, grade 3-4 | – | patients with adverse event | 0%
CCOCc1nc(O)c(-c2nnc(Cc3ccc(Cl)cn3)o2)c(O)c1-c1c(OC)cccc1OC | – | rat, anaesthetised, cannulated, plasma | intravenous infusion, 1 µg/kg/min, 20 min after infusion stop, washout | – | plasma concentration | 0.231 µM
CN1CCN(C(=O)c2ccc([C@H]3[C@@H](F)[C@@H](F)C[C@@H](F)[C@H]3F)cc2)CC1 | liver microsome stability | human liver microsomes | 1 µM, without NADPH | – | hepatic clearance | 3.9 mL/min/kg
CC(C)C[C@H](NC(=O)[C@H](N)C(C)C)C(=O)N[C@@H](CCCNC(=N)N)C(=O)N[C@@H](Cc1c[nH]c2ccccc12)C(=O)N[C@@H](CO)C(=O)N[C@@H](CCCNC(=N)N)C(=O)N[C@@H](CCCCN)C(=O)N[C@@H](CC(C)C)C(=O)N1CCC[C@H]1C(=O)N[C@@H](CS)C(=O)N[C@H](C(=O)N[C@@H](CO)C(N)=O)C(C)C | 12G5 competition, SUP-T1 cells | human plasma | 20 µM, 2 h, 37 °C | – | remaining activity | 75 ± 8%
CNCc1ccc(-c2[nH]c3cc(F)cc4c3c2CCNC4=O)cc1 | measured: Diarrhea | human patients | oral, dose not given, all grades, all doses | – | patients with adverse event | 23.2%
